Measurements collected from several papers.
Parts stem from different laboratories: compare values within a part only.

Set 1 — technique: protein-binding microarray; molecule type: double-stranded DNA, one strand shown; sample: in vitro; tested at: not given; reading: higher = stronger binding
Target: Protein C-ets-1 (ETS1, Homo sapiens, UniProt P14921, residues 1-441, full length assumed)
Chain of UniProt P14921 (whole entry, looked up): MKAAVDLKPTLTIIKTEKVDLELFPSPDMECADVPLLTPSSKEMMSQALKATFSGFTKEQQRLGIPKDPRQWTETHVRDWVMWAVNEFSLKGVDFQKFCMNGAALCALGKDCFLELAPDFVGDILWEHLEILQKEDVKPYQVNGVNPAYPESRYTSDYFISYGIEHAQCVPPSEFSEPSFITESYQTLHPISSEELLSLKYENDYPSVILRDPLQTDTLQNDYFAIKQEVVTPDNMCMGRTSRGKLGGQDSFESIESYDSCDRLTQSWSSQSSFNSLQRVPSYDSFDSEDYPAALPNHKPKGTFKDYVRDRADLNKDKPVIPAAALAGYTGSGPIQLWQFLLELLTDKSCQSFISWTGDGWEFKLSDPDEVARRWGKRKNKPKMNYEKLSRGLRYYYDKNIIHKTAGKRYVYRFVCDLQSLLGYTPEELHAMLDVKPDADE
Notes: k-mer, scored over probes, only values ≥0.25
| Strand | E-score |
| --- | --- |
| GTCCGGTA | 0.391 |
| GCACGGAA | 0.387 |
| AGTTTCCG | 0.477 |
| ATGGGAAA | 0.284 |
| CAAGTTCC | 0.326 |
| CCCCATCC | 0.378 |
| CCGGTGTC | 0.335 |
| GAAGCGGA | 0.4 |
| GCGGCGGA | 0.327 |
| TATAGGAA | 0.281 |
| GGCGGGGA | 0.293 |
| CCGGTGAA | 0.271 |
| ACTTCCAG | 0.428 |
| CTAGCGGA | 0.271 |
| ACTTCCAT | 0.318 |
| CGTCCGTC | 0.336 |
| CAGGCGGA | 0.374 |
| GAATTTCC | 0.424 |
| AGGCGGAC | 0.254 |
| CGGATGGC | 0.411 |
| CTTCCTTC | 0.408 |
| ATCCGCAA | 0.271 |
| CGGATTCC | 0.277 |
| CTTCCGGA | 0.491 |
| TCCGCCAA | 0.356 |

Set 2 — technique: protein binding microarray; molecule type: double-stranded DNA, one strand shown; sample: in vitro; tested at: not given; reference: not given; reading: higher = stronger binding
Target: Histone acetyltransferase KAT6A, winged helix 2, GST fusion (KAT6A, Homo sapiens, UniProt Q92794, residues 85-181)
Notes: 8-mer, flanks averaged, mean of 2 arrays, mostly near background
Residues (chain): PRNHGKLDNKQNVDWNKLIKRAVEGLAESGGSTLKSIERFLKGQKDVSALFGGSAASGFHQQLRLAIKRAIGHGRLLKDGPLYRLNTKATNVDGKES
| Strand | E-score |
| --- | --- |
| CGCCGTAC | 0.0192 |
| GGTTAGAC | 0.015 |
| AACCAGGT | -0.0382 |
| GACACTCC | 0.0952 |
| ACCCCGAA | 0.102 |
| GCGTCTAC | -0.038 |
| AAATACCA | -0.0779 |
| ACCCGCCT | 0.0491 |
| AGCAGAAA | 0.172 |
| CGGTTTTC | 0.0939 |
| CTGGCTGA | -0.0134 |
| CGTGCCTA | -0.0894 |
| GAGTCTCA | -0.117 |
| AAGAGTTA | -0.0657 |
| CAAAGACC | 0.0867 |
| CCTCAGAG | 0.155 |
| ATGTTGTA | 0.0439 |
| CCATAATA | -0.152 |
| AGAACATC | 0.0786 |
| GTCTGAGA | -0.0566 |
| AAACCTAC | -0.0893 |
| ACTCATTA | -0.164 |
| GCGCTATA | -0.155 |
| AACGACTC | -0.237 |
| ATCGTCCA | -0.13 |

Set 3 — technique: RNA Bind-n-Seq; molecule type: RNA; sample: in vitro; tested at: 365 nM; reference: no-protein control; reading: higher = stronger binding
Target: RNA binding protein fox-1 homolog 2, RRM domain, GST-SBP tag (RBFOX2, Homo sapiens, UniProt O43251-10, residues 100-194)
Notes: natural RNA segment, single round, ends assumed
All sequences stand within: GGGAGUUCUACAGUCCGACGAUC … UGGAAUUCUCGGGUGCCAA
Residues (chain): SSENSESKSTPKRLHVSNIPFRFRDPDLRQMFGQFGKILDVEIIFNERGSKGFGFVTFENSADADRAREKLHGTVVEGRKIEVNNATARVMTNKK
| Strand | RBNS enrichment (R) |
| --- | --- |
| CUGGGACACAGAUCCUUGUCUUCAGCACCUUCCAAGGAGCCAACUUUUAUUCCCUUUCCUCUCUCCCCUCCCCACCUCGCUUCUUCCCAAUUUAGUAACUUAGAUGCUUC | 1.24 |
| AUGUUGUGUAUGUUUUAACAUCUCUGAUGCUGUGUUACUAAAAUUACAAGGACCUGCUUUUUAAAAGGCCAGAACAAUUGUCUGAAAUUAGUAACAAUGCUGCAUCUAGA | 0.293 |
| GCCCGCCCUGGUUUGCCUGCGGUUUAAUAUGCAAUAUUCAGCAGACAGCUGCUGGCGCUACAAUUAGUGAGGCGAAAAUAACCACGAUCCACAUUACCAUCAAGCCCUUG | 0.246 |
| UUCAAAAAUACGGAGCAGUGCCUAGUAUCUGGAGAGCAGCACUACCAUUUAUUCUUUCAUUUAUAGUUGGGAAAGUUUUUGACGGUACUAACAAAGUGGUCGCAGGAGAU | 0.383 |
| GAAUAUAUUGCUGUUUAUUUUUCUAUGUUCUGUUUCGUAGCCUUAAGAAGUGUUUCAAACGAUCUGAAUGUAUAAAACAAGUCAAUGCCCUACAUGGUGUGAUGCUGCAU | 0.518 |
| ACCAGUCGACACCAUUGUGUUUGACCGCGUUCCUGUCUCCUCAGCCACAUACCCUCAUCUGUGCUGUCAGUGUGUCUCUGGUGGGGCAGACUUUGCACUUACUGCAGUGC | 0.404 |
| CUUACCUCUCCCAAGGAGGGUACACAACUAGCACCAUUCUUGAUGUCCAGGGAAGAAGCCACCUCAAGACAUAUGAGGGGUGCCCUGGGCUAAUGUUAGGGCUUAAUUUU | 0.318 |
| GAGCCAGCCUGCUAGAAGGCAGGAGUAGCCAGAAUGGAACAUCUGUGCAGAAAGUAGGCCAUUCUCAGCUAGGAUGUAGAAGAACUUGCAGGCUUUGAAACAGCCAACAG | 0.505 |
| UUAAAAUUAAAACUUCAGAUAUUUGUGGAUUACAAUCCUCAUUUACUUCCAAUGUGACUAAAAAGAGAAAAAAAAUCACUGUGUCACUUUAAAGAAAAAUCUUCUAAGGG | 0.357 |
| UUUUGACAGAAAUAUAUUUGCUAAUAUAUUAUAUGUAAAAUAUUUAAUAUCAAAAGAAAUUUGAUAUUUUUGUAAGAAUUUCCUGAGUACAAUGCUUUAUUGAAAAGCUU | 0.775 |
| UCUCCUGCCCAUCAUGUUUGGCCCACUAGAUGAAGCUGUACUCAGCAAUUUAGGGAAUGUAACCCUUCUCAGAACUGGCCAUUUUCAGGGGAAGCUUGGGAGAGCAAUAG | 0.483 |
| AAAUAACUUGUAUAGAUUUUGGUUACCUACCCUUAAGUUCCCUCCCGUAGAUUAGCCUUUAGAAGUCAGUGUGGUGGCCGGCAGUGAAGUUUUCUUCACUAACAUUUAUU | 0.52 |

Set 4 — technique: protein-binding microarray; molecule type: double-stranded DNA, one strand shown; sample: in vitro; tested at: 940 nM top; notes: 60-bp whole probe; together with: salmon DNA 0.4 mg/ml; reference: random background probes; reading: higher = stronger binding; all sequences stand within: GCCTAGCAC … GTCTTGATTCGCTTGACGCTGCTG
Target: Interferon regulatory factor 5, full length, phosphomimetic (IRF5, Homo sapiens, UniProt Q13568-2, residues 1-514, S451D/S453D/S456D/S462D)
| Strand | fitted relative affinity |
| --- | --- |
| GACGATTTCGGGTTTCGAGACGTGCTA | 2.25 z-score |
| TTAGGTTTCGGTCTCAGTTAGTGCTAG | 14.8 z-score |
| TTAGGTTTCGACTATCGGGTAGTGCTA | 9.71 z-score |
| CCCACTTTCAGTTCTCCCTTGTGCTAG | 3.63 z-score |
| TCAAAGCTCCTATCTTATACTGTGCTA | 0.104 z-score |
| TCAGTTTCTATTTTCTGACTGTGCTAG | 6.34 z-score |
| TTAGGTTCCGGTTGCGGTTAGTGCTAG | 4.36 z-score |
| TTAGATTTCAGACTGAATTAGTGCTAG | -0.00207 z-score |
| TTGGTTCTTATCCTTCCCCTCGTGCTA | 0.69 z-score |
| GTTTGTGTGTGTATGTGGTCGTGCTAG | 0.274 z-score |
| TTAGGTATAGGGTATCGGTTAGTGCTA | 1.82 z-score |
| TCATAAAATGGACACTGTACTGTGCTA | -0.0518 z-score |
| GGGATTTTGTCCTCCCCTCCCGTGCTA | -0.0759 z-score |
| CTGCCTTTCAATCCTAGGCCGTGCTAG | 0.49 z-score |
| GAAGACTTTGGTTTGTACACGTGCTAG | -0.397 z-score |
| TGAGATATCGGGACTGGATTAGTGCTA | -0.112 z-score |
| TGGTCTTTCTGTTTTCTCCAGTGCTAG | 3.55 z-score |
| TTAGGTTTCTGTCTCGGTTAGTGCTAG | 8.31 z-score |
| TGAACTTCGGCCTCTAGGTTTGTGCTA | -0.605 z-score |
| GACGTTCTCGGTATCGGGACGTGCTAG | 4.97 z-score |
| TCACTTTACACACATCATACTGTGCTA | 1.45 z-score |
| GGTTTTCTGGTTCCCATTCCGTGCTAG | 1.92 z-score |
| CCAATTCTTTTTATGCTTTCGTGCTAG | 1.68 z-score |
| GACGACATCAGTTTCGAGACGTGCTAG | 3.98 z-score |
| GACGGTTTCGTGTATCGGGACGTGCTA | 5.53 z-score |
